Results gathered from unrelated publications.
Each numbered part is a random draw from the data of one study; scales do not carry over between parts. Positions count from the first letter of the parent shown.

Series 1
Target: Fragile X messenger ribonucleoprotein 1, C-terminal low-complexity region (Fmr1, Mus musculus, UniProt P35922)
Technique: RNA Bind-n-Seq
Form: RNA
Sample: in vitro
Concentration: 200 nM
Notes: whole 134-nt RNA, ends assumed
Added: 150 mM KCl
Reference: input library
Direction: higher = stronger binding
All sequences stand within: GGGAGUUCUACAGUCCGACGAUC … UGGAAUUCUCGGGUGUCAAGG
| Oligonucleotide | log2 enrichment |
| --- | --- |
| GCAGGAAGUAAAAACAAAUGGAAAUGCUUCGGAUAGUGGCAGGGGUGGGGGUUGCUAAGGAAAGGGUGGGAUGGGGGUGGGUAAAGAGUU | 0.0317 |
| UUGGCUCGAGAGAUUGAAUCAAGCCCCCAGUACCGCCUACGGAUCGCCAUGGAGAACGACGAUGGGCGCACUGAAGAGGAGAAGCACAGU | -0.451 |
| GUCCUGUGCUACACAUCGUAUGUACCGAAUCGGCCCCCCGGCCCCCCGGGCCCCCCGGGAAAGUAUUAUGUUACGCCGUUCGGAUCUGCA | -0.236 |
| UCAAGUCCUGUGCUACACAUCGUAUGUACCGAAUCGGGGUUGGGUUGGGGUUGGAAAGUAUUAUGUUACGCCGUUCGGAUCUGCACUUCC | 0.408 |
| UGUACUGAUGACAGCUAAUCUCUGAAUCUUUUUCCUCCAGGAUGUUCCUUCAGGAGGAAGCAGCACUAAAAGCACUCUGAGUCAAGAUGA | -1.02 |
| UGGCCCUGGUGGCAUGCGGGGAGGAAGAGGUGGCCUCAUGGAUCGUGGAGGUCCCGGUGGAAUGUUCAGAGGUGGCCGUGGUGGAGACAG | 0.374 |
| ACCAUGCAGGUGGGCAUCUUUGGGAAGUGGGGCAAGGGGGGGAUAGGGAGGGGGGUAACACUUUGGAAACAGGUGGUCCCAGGUCGUUUC | 0.708 |
| AGUCCUGUGCUACACAUCGUAUGUACCGAAUCGGGGAAAAGGAAAAGGGGAAAAGGGAAAGUAUUAUGUUACGCCGUUCGGAUCUGCACU | 0.0685 |
| AAGUCCUGUGCUACACAUCGUAUGUACCGAAUCGGUUUUUUUGGAGGAAAAAAAGGAAAGUAUUAUGUUACGCCGUUCGGAUCUGCACUU | -0.938 |

Series 2
Target: RNA binding protein fox-1 homolog 2, RRM domain, GST-SBP tag (RBFOX2, Homo sapiens, UniProt O43251-10, residues 100-194)
Technique: RNA Bind-n-Seq
Form: RNA
Sample: in vitro
Concentration: 365 nM
Notes: natural RNA segment, single round, ends assumed
Reference: no-protein control
Direction: higher = stronger binding
All sequences stand within: GGGAGUUCUACAGUCCGACGAUC … UGGAAUUCUCGGGUGCCAA
Construct (chain): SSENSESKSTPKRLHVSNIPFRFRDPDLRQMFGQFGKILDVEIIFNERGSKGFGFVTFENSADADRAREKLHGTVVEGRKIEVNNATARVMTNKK
| Oligonucleotide | RBNS enrichment (R) |
| --- | --- |
| AGGGUCUGGUCCCAGUUCUGACUCGGCCAUUCUUACAGCUCUUUCUGGCUUUGAGUUUGCUUGUGGAAUUUCCUGGGCAGUUGUGUUAAAUCCGCCAGGUCACGUGCAGA | 0.378 |
| UGUUCAUCUCUGCCUUUGGACUAAAUAGGGGCAUCUGUGCAAAACUGUAGAAGCCAUUUUGAAGGAUUUGGCUUUUUAUUGUUUGUGGCAUUAAUAAGGGAGCUUACCAU | 0.29 |
| GUCCUCCAGAAGCCUCUGGCUAGAGGCCAGCCCCACCCAGGAGGGAGGGGGCUAUAGCUACAGGAAGCACCCCAUGCCAAAGCUAGGGUGGCCCUUGCAGUUCAGCACCA | 0.173 |
| CUUCUGCCCAAGUCUGUGUCCCAUCAGACUUGCAGCCUUUCAGCUUAACAGUUGCCCGGUCCUGCUGGCCCCUUUUCCUCUGGCCCCCCUCUUCUGAAACAGGAUGUGCA | 2.6 |
| GAGUUAAUUUUGACUUUGUUAGAUGAGGGAGGAAAACUCAACUGUUUCUCUUUGUUAUCUAAAUGUUUCAGAAUUCAAUCGUGAAGGAACAGGCAUUUUACACUAUGAAG | 0.374 |
| GCUUUUUCCUCUCCAGUCCAAAACACCUCACUGUUCCUGUCUACCUCGGGGUCAGGGCCCGGCAUGGCCAAGCCCUGGCCCAUCUGUGUCUGUGUCACUCCCCUCCCUUC | 0.844 |

Series 3
Target: CCND3, cyclin fold, Cln2 fusion (human)
Technique: yeast growth competition, sequencing
Sample: yeast
Notes: weak parent motif
Reference: not given
Direction: higher = stronger binding
Parent: ORC1 docking peptide (human); PRARKRLELGNLG; partner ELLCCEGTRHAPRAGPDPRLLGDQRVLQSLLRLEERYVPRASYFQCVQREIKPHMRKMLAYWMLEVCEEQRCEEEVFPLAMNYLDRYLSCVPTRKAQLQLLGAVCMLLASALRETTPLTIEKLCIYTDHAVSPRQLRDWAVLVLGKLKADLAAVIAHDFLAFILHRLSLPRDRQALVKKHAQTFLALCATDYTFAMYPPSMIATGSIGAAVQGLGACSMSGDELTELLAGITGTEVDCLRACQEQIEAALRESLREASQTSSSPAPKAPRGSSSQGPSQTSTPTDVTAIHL
| Change | normalised enrichment score |
| --- | --- |
| PRARKPLELGNLG [R6P] | 0.0878 |
| PRARKRLECGNLG [L9C] | 0.131 |
| PRARKRLELENLG [G10E] | -0.0435 |
| PRARKRLELGKLG [N11K] | 0.128 |
| PRARKRWELGNLG [L7W] | 0.141 |
| CRARKRLELGNLG [P1C] | 0.245 |
| PRARKRLGLGNLG [E8G] | 0.16 |

Single results of other studies
| Molecule | target | assay | system | conditions | how to read | endpoint | result |
| --- | --- | --- | --- | --- | --- | --- | --- |
| PhoQ, residues 284 288 289 292 302 303 SLCLSL | PhoP, residues 12 14 15 18 19 HEGLL (Escherichia coli, UniProt P23836) | Sort-seq, refers to: YFP reporter | E. coli | PhoQ-PhoP variant library, added: 10 µM Mg2+ | reference: high Mg2+ state, higher = stronger signaling | fold induction | 6.73 |

Repeated from above (series 3):
| Change | normalised enrichment score |
| --- | --- |
| PRARKRLELENLG [G10E] | -0.0435 |
| PRARKRLELGKLG [N11K] | 0.128 |
| PRARKRWELGNLG [L7W] | 0.141 |
